{"data": "Measured values gathered from unrelated publications"}
{"Structure (SMILES)": "CNC(=O)c1ccc(-c2cnc3ncc(Cc4ccc5ncccc5c4)n3n2)cc1F", "test": "refers to: Dyspepsia", "system": "cancer patients", "conditions": "oral, 600 mg twice daily, all expansion cohorts, grade 3-4", "quantity": "patients with adverse event", "result": "0%"}
{"Structure (SMILES)": "C[C@@H](c1ccc2nccn2c1)n1nnc2ncc(-c3cnn(C)c3)nc21", "test": "refers to: Pneumonitis grade ≥3", "system": "EGFR-mutant MET-altered NSCLC", "conditions": "oral, study", "quantity": "patients with treatment-related AEs", "result": "0%"}
{"Structure (SMILES)": "CC(C)C[C@H](NC(=O)CNC(=O)c1cc(Cl)ccc1Cl)B(O)O", "test": "refers to: Dizziness, all grades", "system": "newly diagnosed multiple myeloma patients", "conditions": "oral, dose not given, maintenance phase, new onset, cycle 17 or later", "quantity": "patients with adverse event", "result": "11%"}
{"Structure (SMILES)": "CCO[C@H]1CCN(Cc2c(OC)cc(C)c3[nH]ccc23)[C@H](c2ccc(C(=O)O)cc2)C1", "test": "refers to: Flatulence", "system": "PNH patients, active haemolysis", "conditions": "oral, 200 mg twice daily, extension phase", "quantity": "patients with adverse event", "result": "0%"}
{"Structure (SMILES)": "CNC(=O)c1cc(Oc2ccc(NC(=O)Nc3cc(C(C)(C)C)nn3-c3ccc4ncccc4c3)c(F)c2)ccn1", "system": "patients", "conditions": "oral, dose not given, cycles 1 and 2, High Cmax subgroup", "quantity": "patients with grade 1 cardiac disorders", "result": "11%"}
{"Structure (SMILES)": "C=CC(=O)NC1CCN(c2ncc3ncnc(Nc4ccc(Oc5ccc6c(c5)ncn6C)c(C)c4)c3n2)CC1", "system": "male patients", "conditions": "oral, dose not given, on-treatment adverse events", "quantity": "patients with feces hard", "result": "0%"}
{"Structure (SMILES)": "O=C(Nc1nc2cccc(-c3ccc(CN4CCS(=O)(=O)CC4)cc3)n2n1)C1CC1", "system": "rheumatoid arthritis patients", "conditions": "oral, 200 mg once daily, 4 weeks, regardless of relatedness", "quantity": "patients with skin disorders", "result": "8.3%"}
{"Structure (SMILES)": "CCOc1c([C@H](C)n2nc(C)c3c(N)ncnc32)cc(Cl)c(F)c1[C@@H]1CNC(=O)C1", "test": "refers to: QTcF change ≤30 ms", "system": "previously treated B-cell malignancy", "conditions": "oral, 45 mg once daily, overall population", "how to read": "relative to: baseline", "quantity": "patients", "result": "100%"}
{"Structure (SMILES)": "COc1cc(Nc2ncc3c(n2)-c2ccc(Cl)cc2C(c2c(F)cccc2OC)=NC3)ccc1C(=O)O", "system": "cancer patients", "conditions": "oral, dose not given, grade 4 any attribution, together with: pembrolizumab", "quantity": "patients with lung infection", "result": "4%"}
{"Structure (SMILES)": "NC(=O)N1c2ccccc2C=Cc2ccccc21", "system": "male patients", "conditions": "oral, dose not given, on-treatment adverse events", "quantity": "patients with eye pain", "result": "7%"}
{"Structure (SMILES)": "Cc1cc(NC2CCN(C(=O)OC3CCN(C(=O)/C=C/CN(C)C)C3)CC2)n2ncc(C(C)C)c2n1 (stereo not shown)", "system": "patients with advanced solid tumours", "conditions": "dose not given, QD arm, any grade", "quantity": "patients with Headache", "result": "9%"}
{"Structure (SMILES)": "COc1ccc([C@@H](O)c2cc(-c3ncnc4cc(N5CCOCC5)ccc34)c(F)cc2Cl)nn1", "system": "locally advanced rectal cancer patients", "conditions": "150 mg, drug-related adverse events, together with: capecitabine and radiotherapy", "quantity": "patients with diarrhea", "result": "33%"}
{"Structure (SMILES)": "C[C@@H](Nc1cc(F)cc(F)c1)c1cc(C(=O)N(C)C)cc2c(=O)cc(N3CCOCC3)oc12", "test": "refers to: Sepsis", "system": "advanced solid tumour patients", "conditions": "oral, dose not given, dose expansion", "quantity": "patients discontinuing for AE", "result": "0%"}
{"note": "For quick reference, copied from above:"}
{"Structure (SMILES)": "CC(C)C[C@H](NC(=O)CNC(=O)c1cc(Cl)ccc1Cl)B(O)O", "test": "refers to: Dizziness, all grades", "system": "newly diagnosed multiple myeloma patients", "conditions": "oral, dose not given, maintenance phase, new onset, cycle 17 or later", "quantity": "patients with adverse event", "result": "11%"}
{"Structure (SMILES)": "CCO[C@H]1CCN(Cc2c(OC)cc(C)c3[nH]ccc23)[C@H](c2ccc(C(=O)O)cc2)C1", "test": "refers to: Flatulence", "system": "PNH patients, active haemolysis", "conditions": "oral, 200 mg twice daily, extension phase", "quantity": "patients with adverse event", "result": "0%"}
